Published values pooled from the literature.
Compare with care: the assays were run in different laboratories. “And” joins repeats or separate records; there may be more than shown. ± gives the spread as reported.
KDM4B: Lysine-specific demethylase 4B (KDM4B, Homo sapiens, UniProt O94953)
Chain of UniProt O94953 (whole entry, looked up): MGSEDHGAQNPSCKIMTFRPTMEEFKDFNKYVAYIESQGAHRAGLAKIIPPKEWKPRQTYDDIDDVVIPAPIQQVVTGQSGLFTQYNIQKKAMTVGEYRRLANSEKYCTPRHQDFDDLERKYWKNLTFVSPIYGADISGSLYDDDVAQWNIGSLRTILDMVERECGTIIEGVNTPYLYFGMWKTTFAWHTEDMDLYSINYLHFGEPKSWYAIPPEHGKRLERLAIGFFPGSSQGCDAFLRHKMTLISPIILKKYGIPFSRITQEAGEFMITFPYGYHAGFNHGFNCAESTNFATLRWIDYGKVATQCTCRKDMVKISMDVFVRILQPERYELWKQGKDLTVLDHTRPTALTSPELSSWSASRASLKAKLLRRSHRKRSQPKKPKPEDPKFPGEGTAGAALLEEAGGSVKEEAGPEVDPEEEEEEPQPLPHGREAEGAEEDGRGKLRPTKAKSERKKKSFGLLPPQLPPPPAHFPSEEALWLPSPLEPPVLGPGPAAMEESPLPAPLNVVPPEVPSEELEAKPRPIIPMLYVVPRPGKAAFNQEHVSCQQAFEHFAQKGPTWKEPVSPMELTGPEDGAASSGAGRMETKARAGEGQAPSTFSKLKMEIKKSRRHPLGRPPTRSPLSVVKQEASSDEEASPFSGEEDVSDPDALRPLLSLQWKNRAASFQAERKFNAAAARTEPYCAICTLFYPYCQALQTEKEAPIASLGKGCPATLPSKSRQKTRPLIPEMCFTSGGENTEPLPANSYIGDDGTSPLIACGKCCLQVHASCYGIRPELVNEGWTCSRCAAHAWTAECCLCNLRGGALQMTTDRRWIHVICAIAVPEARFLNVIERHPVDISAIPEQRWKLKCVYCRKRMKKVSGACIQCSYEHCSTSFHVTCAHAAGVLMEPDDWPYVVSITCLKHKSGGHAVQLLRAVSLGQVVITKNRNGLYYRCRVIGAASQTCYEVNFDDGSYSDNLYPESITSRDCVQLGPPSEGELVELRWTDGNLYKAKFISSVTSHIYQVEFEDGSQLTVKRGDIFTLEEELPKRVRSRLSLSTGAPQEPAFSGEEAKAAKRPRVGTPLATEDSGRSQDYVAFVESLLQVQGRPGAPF
MARK3: MAP/microtubule affinity-regulating kinase 3 (MARK3, Homo sapiens, UniProt P27448)
Chain of UniProt P27448 (whole entry, looked up): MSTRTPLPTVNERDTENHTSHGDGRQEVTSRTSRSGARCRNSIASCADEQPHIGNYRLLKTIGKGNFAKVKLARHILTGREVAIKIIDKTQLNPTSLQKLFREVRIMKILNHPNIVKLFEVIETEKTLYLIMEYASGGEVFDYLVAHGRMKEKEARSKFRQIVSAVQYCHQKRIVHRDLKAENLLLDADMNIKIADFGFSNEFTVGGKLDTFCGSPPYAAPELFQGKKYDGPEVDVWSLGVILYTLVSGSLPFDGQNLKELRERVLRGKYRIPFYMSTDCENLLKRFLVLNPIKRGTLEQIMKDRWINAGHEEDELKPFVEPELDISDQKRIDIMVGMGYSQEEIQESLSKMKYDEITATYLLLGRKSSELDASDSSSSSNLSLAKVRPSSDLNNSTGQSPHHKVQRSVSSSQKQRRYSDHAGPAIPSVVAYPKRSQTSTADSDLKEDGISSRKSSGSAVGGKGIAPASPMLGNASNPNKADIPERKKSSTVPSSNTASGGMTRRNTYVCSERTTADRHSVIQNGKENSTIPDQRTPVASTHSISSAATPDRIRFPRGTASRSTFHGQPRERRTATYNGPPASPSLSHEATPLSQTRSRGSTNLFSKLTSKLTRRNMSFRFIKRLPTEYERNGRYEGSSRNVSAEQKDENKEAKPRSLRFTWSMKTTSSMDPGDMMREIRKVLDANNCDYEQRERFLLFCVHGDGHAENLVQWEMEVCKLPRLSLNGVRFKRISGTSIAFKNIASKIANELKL
CSNK1A1: Casein kinase I isoform alpha (CSNK1A1, Homo sapiens, UniProt P48729)
Chain of UniProt P48729 (whole entry, looked up): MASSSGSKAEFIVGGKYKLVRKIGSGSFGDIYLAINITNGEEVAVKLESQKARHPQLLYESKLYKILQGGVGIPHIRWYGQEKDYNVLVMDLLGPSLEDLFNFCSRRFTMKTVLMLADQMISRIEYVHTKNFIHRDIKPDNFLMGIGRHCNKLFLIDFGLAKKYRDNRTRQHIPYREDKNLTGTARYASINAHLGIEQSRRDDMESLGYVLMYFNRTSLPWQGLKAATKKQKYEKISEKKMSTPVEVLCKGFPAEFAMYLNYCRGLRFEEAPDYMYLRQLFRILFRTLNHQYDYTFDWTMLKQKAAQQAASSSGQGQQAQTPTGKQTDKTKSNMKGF
HUNK: Hormonally up-regulated neu tumor-associated kinase (HUNK, Homo sapiens, UniProt P57058)
Chain of UniProt P57058 (whole entry, looked up): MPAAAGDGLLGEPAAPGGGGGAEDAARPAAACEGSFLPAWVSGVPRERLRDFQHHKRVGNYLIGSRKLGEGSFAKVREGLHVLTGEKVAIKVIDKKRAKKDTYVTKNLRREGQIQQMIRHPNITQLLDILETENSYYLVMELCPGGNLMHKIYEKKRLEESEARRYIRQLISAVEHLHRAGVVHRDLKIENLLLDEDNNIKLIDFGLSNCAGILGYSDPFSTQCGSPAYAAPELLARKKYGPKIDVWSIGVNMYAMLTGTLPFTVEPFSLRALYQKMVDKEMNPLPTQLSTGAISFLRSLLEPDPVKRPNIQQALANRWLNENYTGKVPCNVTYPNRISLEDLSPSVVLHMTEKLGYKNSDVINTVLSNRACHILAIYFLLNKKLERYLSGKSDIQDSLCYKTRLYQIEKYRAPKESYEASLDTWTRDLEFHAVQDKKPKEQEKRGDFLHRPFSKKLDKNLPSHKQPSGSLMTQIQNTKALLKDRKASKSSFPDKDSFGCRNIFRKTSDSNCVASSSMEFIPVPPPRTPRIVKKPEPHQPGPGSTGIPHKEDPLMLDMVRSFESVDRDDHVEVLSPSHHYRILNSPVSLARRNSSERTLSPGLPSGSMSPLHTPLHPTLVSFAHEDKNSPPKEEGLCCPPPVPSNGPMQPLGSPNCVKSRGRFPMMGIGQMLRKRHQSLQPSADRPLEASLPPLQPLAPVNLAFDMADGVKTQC
INSR: Insulin receptor (INSR, Homo sapiens, UniProt P06213)
Chain of UniProt P06213 (whole entry, looked up): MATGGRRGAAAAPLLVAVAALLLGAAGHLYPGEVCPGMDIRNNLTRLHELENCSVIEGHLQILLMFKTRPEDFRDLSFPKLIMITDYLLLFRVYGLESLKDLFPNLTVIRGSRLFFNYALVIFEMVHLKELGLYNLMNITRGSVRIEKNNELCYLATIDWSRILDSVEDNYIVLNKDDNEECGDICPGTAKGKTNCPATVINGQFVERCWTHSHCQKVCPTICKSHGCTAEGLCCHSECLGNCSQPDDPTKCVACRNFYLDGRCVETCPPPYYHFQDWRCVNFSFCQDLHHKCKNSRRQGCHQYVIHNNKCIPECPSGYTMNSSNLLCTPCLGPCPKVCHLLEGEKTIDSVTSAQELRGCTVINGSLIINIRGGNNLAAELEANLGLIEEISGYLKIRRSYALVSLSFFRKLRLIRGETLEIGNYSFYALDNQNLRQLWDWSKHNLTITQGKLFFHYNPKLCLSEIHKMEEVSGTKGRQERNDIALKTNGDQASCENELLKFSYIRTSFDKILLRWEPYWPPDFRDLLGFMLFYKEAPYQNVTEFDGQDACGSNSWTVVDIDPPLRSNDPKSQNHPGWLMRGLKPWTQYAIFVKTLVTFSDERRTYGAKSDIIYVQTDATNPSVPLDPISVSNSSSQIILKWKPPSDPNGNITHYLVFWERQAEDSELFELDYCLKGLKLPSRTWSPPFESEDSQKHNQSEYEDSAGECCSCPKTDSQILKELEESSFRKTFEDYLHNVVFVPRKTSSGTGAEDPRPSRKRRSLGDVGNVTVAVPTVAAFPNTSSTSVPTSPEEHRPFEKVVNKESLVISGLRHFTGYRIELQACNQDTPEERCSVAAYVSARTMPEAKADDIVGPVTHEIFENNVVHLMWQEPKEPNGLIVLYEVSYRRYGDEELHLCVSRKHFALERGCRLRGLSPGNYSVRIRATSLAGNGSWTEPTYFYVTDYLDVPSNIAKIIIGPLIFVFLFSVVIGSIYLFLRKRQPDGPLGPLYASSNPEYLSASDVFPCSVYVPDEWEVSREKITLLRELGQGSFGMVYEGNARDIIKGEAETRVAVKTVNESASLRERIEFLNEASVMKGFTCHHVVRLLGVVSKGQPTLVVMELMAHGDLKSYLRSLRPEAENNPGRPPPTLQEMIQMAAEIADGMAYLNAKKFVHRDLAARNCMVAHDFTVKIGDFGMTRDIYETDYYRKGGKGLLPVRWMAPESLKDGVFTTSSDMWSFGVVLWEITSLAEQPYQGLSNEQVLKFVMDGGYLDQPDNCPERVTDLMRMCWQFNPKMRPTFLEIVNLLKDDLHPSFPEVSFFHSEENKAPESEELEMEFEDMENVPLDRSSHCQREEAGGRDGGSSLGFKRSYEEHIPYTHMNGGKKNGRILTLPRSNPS
Chain of UniProt P37023 (whole entry, looked up): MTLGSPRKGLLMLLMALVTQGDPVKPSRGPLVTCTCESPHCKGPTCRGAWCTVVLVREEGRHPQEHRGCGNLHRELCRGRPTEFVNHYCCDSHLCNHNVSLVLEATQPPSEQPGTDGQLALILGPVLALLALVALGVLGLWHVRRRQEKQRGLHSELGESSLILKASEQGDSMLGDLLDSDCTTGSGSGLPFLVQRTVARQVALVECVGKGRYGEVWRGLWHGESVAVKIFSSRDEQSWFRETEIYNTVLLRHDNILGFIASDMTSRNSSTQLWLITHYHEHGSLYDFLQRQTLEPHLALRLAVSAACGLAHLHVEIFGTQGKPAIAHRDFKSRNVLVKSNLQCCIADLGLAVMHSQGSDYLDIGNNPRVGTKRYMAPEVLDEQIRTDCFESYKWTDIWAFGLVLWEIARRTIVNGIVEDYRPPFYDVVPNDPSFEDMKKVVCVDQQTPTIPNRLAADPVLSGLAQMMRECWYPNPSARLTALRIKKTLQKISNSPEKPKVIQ

`COc1cc(F)ccc1-c1ncnc(Nc2cccc(C[S@](C)(=N)=O)c2)n1` has a remaining activity of 88% (DYRK2 (Homo sapiens, UniProt Q92630); kinase activity; 10 µM, together with: 10 µM ATP).
`N[C@@H]1CC[C@@H](c2ccc(Cl)c(Cl)c2)c2ccccc21` gave a remaining activity of 82.3% (SLC6A3 (Homo sapiens, UniProt Q01959, F326A); dopamine uptake; 0.003 µM, 0.03333 h, F326A mutant, together with: [3H]dopamine; reference: no inhibitor).
For `O=C(NC1CCC1)c1ccc2nc(-c3cccc(NS(=O)(=O)NCCN4CCCCC4)c3)cn2c1`, the remaining activity was 78% (MAP3K6 (Homo sapiens, UniProt O95382); enzyme activity; 10 µM).
With `O=C(O)c1cc(N=Cc2ccccc2O)cc(C(=O)O)c1` the remaining activity was 62% (KDM4B; concentration not given).
For `O=C(Nc1ccc(F)c(Br)c1)c1ccc2c(c1)C(=O)NC2=O`, the remaining activity was 24.6% (MAOB (Homo sapiens, UniProt P27338); inhibitor; 4 × IC50, before dialysis; reference: control).
The remaining activity of `Nc1ncc2c(n1)-c1c([nH]c3ccc(-c4ccc(F)cc4)cc13)CCC2` is reported as 90% (MARK3; kinase activity, inhibitor, radiometric; 1 µM, together with: ATP at Km).
For `O=C(O)c1ccc(Nc2ncc3c(n2)-c2ccc(Cl)cc2C(c2c(F)cccc2F)=NC3)cc1`, the remaining activity was 105% (Plk3(h); kinase activity; 1 µM).
`COC(=O)C(C(=O)C(=O)Nc1ccc([N+](=O)[O-])cc1[N+](=O)[O-])c1nc2ccc(Cl)cc2[nH]c1=O` (centres unmarked) has a remaining activity of 49% (KDM4B; concentration not given).
`Cc1cc(Nc2cc(N3CCN(C)CC3)nc(Sc3ccc(NC(=O)C4CC4)cc3)n2)[nH]n1` gave a remaining activity of 95% (CDC42BPB (Homo sapiens, UniProt Q9Y5S2); kinase activity, KinaseProfiler; 0.03 µM, species human; reference: control).
For `O=C1NC(=O)/C(=C/c2ccc(-c3ccc(F)cc3O)o2)S1`, the remaining activity was 89% (EPHB4 (Homo sapiens, UniProt P54760); enzyme activity; 10 µM).
The remaining activity of `C=CC(=O)N1CCC[C@@H](n2nc(-c3ccc(Oc4ccccc4)cc3)c3c(N)ncnc32)C1` is reported as 6.7 ± 0.1% (FGR (Homo sapiens, UniProt P09769); kinase activity, inhibitor, HotSpot radiometric; 100 nM, together with: ATP 10 µM).
The remaining activity of `COc1cc(N2CCN(C)CC2)ccc1Nc1nc(N)n(C(=S)NCc2c(Cl)cccc2Cl)n1` is reported as 6.6% (NEK5 (Homo sapiens, UniProt Q6P3R8); enzyme activity; 10 µM; reference: control).
With `COc1cc(Nc2ncc3c(n2)-c2ccc(Cl)cc2C(c2c(F)cccc2OC)=NC3)ccc1C(=O)O` the remaining activity was 22% (NTRK2; kinase activity; 1 µM).
For `OCCS`, the remaining activity was 97.3 ± 0.5% (Alpha-L-fucosidase AlfC (Lacticaseibacillus rhamnosus, UniProt A0A809N2S1); inhibitor; 1000 µM, 5 min; reference: untreated).
`COc1cc(-c2cncc3c2CN(C)Cc2cc(N4CCNCC4)ccc2-3)cc(OC)c1OC` gave a remaining activity of 3% (ACVRL1 (Homo sapiens, UniProt P37023); kinase activity; 1 µM, human enzyme, together with: ATP 10 µM; reference: DMSO control).
With `NC/C(=C\F)COc1cccc(Cn2c(=S)[nH]c(=O)c3[nH]cnc32)c1` the remaining activity was 11.9% and 11.5% (Peroxidasin homolog (PXDN, Homo sapiens, UniProt Q92626); enzyme activity, inhibitor, Amplex UltraRed; 40 µM; reference: control).
`C=CC(=O)N1CCC[C@@H](n2nc(-c3ccc(Oc4ccccc4)cc3)c3c(N)ncnc32)C1` gave a remaining activity of 72.7% (TNK1 (Homo sapiens, UniProt Q13470); 10 µM).
`Fc1ccc(-c2nn3cc(F)ccc3c2-c2ccncc2)cc1` has a remaining activity of 42.3% (CSNK1A1; kinase activity, inhibitor, ADP-Glo; 1.176 µM, 0.5 h).
`COc1cc(N2CCN(C)CC2)ccc1Nc1nc(N)n(C(=O)NCc2c(Cl)cccc2Cl)n1` gave a remaining activity of 8% (HUNK; enzyme activity; 10 µM; reference: control).
`Fc1ccc(-c2nc3cc(F)ccn3c2-c2ccncc2)cc1` has a remaining activity of 29.5% and 15.4% (CSNK1A1; kinase activity, inhibitor, ADP-Glo; 0.8751 µM, 0.5 h).
For `CC(C)Oc1cc(N2CCN(C)CC2)ccc1Nc1nc(N)n(C(=O)NCc2ccccc2S(=O)(=O)C(C)C)n1`, the remaining activity was 4% (INSR; enzyme activity; 10 µM; reference: control).
`C[C@@H](Oc1ccc(S(C)(=O)=O)cc1C(=O)N1C[C@@H]2C[C@]2(c2cc(C(F)(F)F)on2)C1)C(F)(F)F` gave a remaining activity of 38% (SLC6A9 (Homo sapiens, UniProt P48067, L476T); glycine uptake, inhibitor, [3H]glycine uptake; 0.004 µM, L422T mutant, log concentration 4, together with: [3H]glycine; reference: no inhibitor).
`COc1cc(N2CCN(C)CC2)ccc1Nc1nc(N)n(C(=O)NCc2ccccc2S(=O)(=O)C(C)C)n1` has a remaining activity of 0.4% (INSR; enzyme activity; 10 µM; reference: control).
`CCCCCC/C(C)=N/Nc1ccc([N+](=O)[O-])cc1[N+](=O)[O-]` has a remaining activity of 62% (KDM4B; concentration not given).
For `CCOc1cc(N2CCN(C)CC2)ccc1Nc1nc(N)n(C(=O)NCc2ccccc2S(=O)(=O)C(C)C)n1`, the remaining activity was 1% (HUNK; enzyme activity; 10 µM; reference: control).
With `CNc1ncc2c(/C=C/C(=O)N3CCC(OC)CC3)nn(Cc3cccc(C(F)(F)F)c3)c2n1` the remaining activity was 104% (MARK3; kinase activity, inhibitor; 1 µM; reference: untreated control).

Some of these lines once more:
The remaining activity of `COc1cc(N2CCN(C)CC2)ccc1Nc1nc(N)n(C(=S)NCc2c(Cl)cccc2Cl)n1` is reported as 6.6% (NEK5 (Homo sapiens, UniProt Q6P3R8); enzyme activity; 10 µM; reference: control).
`C[C@@H](Oc1ccc(S(C)(=O)=O)cc1C(=O)N1C[C@@H]2C[C@]2(c2cc(C(F)(F)F)on2)C1)C(F)(F)F` gave a remaining activity of 38% (SLC6A9 (Homo sapiens, UniProt P48067, L476T); glycine uptake, inhibitor, [3H]glycine uptake; 0.004 µM, L422T mutant, log concentration 4, together with: [3H]glycine; reference: no inhibitor).
`COc1cc(F)ccc1-c1ncnc(Nc2cccc(C[S@](C)(=N)=O)c2)n1` has a remaining activity of 88% (DYRK2 (Homo sapiens, UniProt Q92630); kinase activity; 10 µM, together with: 10 µM ATP).
For `O=C1NC(=O)/C(=C/c2ccc(-c3ccc(F)cc3O)o2)S1`, the remaining activity was 89% (EPHB4 (Homo sapiens, UniProt P54760); enzyme activity; 10 µM).
